# Published values of several laboratories.
# Lines come from different studies, so protocols differ. ± marks the error that the study gave.
Compound,test,test system,conditions,scale,measurement,result
O=P1(NCCCl)NCCCO1 (centres unmarked),,"rat, plasma","intravenous, 10 mg/kg, together with: ketoconazole 40 mg/kg oral 50 min before",,MRT(0-inf),7.7 ± 0.921 h
C[C@@H]1CC[C@H]2[C@@H](C)CO[C@@H]3O[C@@]4(C)CC[C@@H]1[C@]32OO4,measured: compound,"rat, plasma","800 ng/mL spiked, 30 days, long-term storage at -80 °C",,stability accuracy,103%
CC(C)[C@@H]1NC(=O)[C@H](Cc2ccccc2)NC(=O)[C@H](Cc2ccc(O)cc2)NC(=O)CCSSC[C@@H](C(=O)N2CCC[C@H]2C(=O)N[C@H](CCCNC(=N)N)C(=O)NCC(N)=O)NC(=O)[C@H](CCC(N)=O)NC1=O,,"Wistar rat, blood","intravenous, 10 µg/kg single dose, 72 h",,fibrinogen,210 ± 41.8 mg/dL
N=C(N)NCc1ccc(C(=O)NCCCC[C@H](NC(=O)N[C@@H](CCC(=O)O)C(=O)O)C(=O)O)cc1[131I],,"SCID mouse, PC-3 xenografts, bone",1 h,,tissue uptake,0.66 ± 0.26 %ID/g
O=C(C[P+]([Au-][Cl])(c1ccccc1)c1ccccc1)[O][Ti+2][O]C(=O)C[P+]([Au-][Cl])(c1ccccc1)c1ccccc1.c1cc[cH-]c1.c1cc[cH-]c1,,DMSO/water 1:99,5 x 10 µM,,pH,6.12
O=C(O)CC[C@H](NC(=O)O[C@@H](CCCCNC(=O)c1ccc([18F])cc1)C(=O)O)C(=O)O,,"mouse, PC-3 PIP/flu xenografts, blood",60 min,,tissue uptake,1.07 ± 0.26 %ID/g
CC[C@H](C)[C@@H]1NC(=O)[C@H](CCCCN)NC(=O)[C@H](CCCCN)NC(=O)[C@H](Cc2c[nH]c3ccccc23)NC(=O)[C@H](CC(C)C)NC(=O)[C@@H]2CCCN2C(=O)[C@H](C)NC(=O)CNC(=O)CNC(=O)[C@H](CO)NC(=O)CNC(=O)CNC(=O)[C@H](CO)NC(=O)[C@H](CCC(=O)O)NC(=O)[C@H](CC(C)C)NC(=O)[C@H](CC(C)C)NC(=O)[C@H](CCCCN)NC(=O)[C@H](CCCCN)NC(=O)[C@H]([C@@H](C)CC)NC(=O)[C@H]([C@@H](C)CC)NC(=O)[C@H](CCCCN)NC(=O)[C@H](CCCCN)NC(=O)[C@H](Cc2c[nH]c3ccccc23)NC(=O)[C@H](CC(C)C)NC(=O)[C@@H]2CCCN2C(=O)CNC(=O)CNC(=O)[C@@H](NC(=O)CN)CSSC[C@@H](C(N)=O)NC(=O)[C@H](CC(C)C)NC(=O)[C@H](CCCCN)NC(=O)[C@H](CCCCN)NC(=O)[C@H]([C@@H](C)CC)NC1=O,hemolysis,uninfected human erythrocytes,1 h,,HC10,8.4 ± 0.8 µM
C/C=C/C=C/C/C=C/CCCCCCCc1cccc(O)c1O,,"female Kunming mice, tumour-bearing, spleen","intravenous, 10 mg/kg, 2 h",,tissue concentration,8460 ± 780 ng/g
CCC(CC)OC1C=C(C(=O)OC(C)OC(=O)C(N)C(C)C)CC(NC(=N)N)C1NC(C)=O (mixture of isomers),,"mice, plasma","po-fasted, 10 mg/kg, 24 h",,AUC(0-24 h),3.1 ± 0.558 µg·h/mL
c1ccc(C2(CCNC3CCC4(SCCS4)c4ccccc43)CCOC3(CCCC3)C2)nc1 (centres unmarked),,"Sprague-Dawley rat, plasma","intravenous, 0.5 mg/kg",,clearance,1.11 L/h/kg
CC(C)[C@H](NC(=O)CNC(=O)[C@H](CCC(N)=O)NC(=O)[C@H](C)N)C(=O)O,,human,"continuous infusion, all dose groups",,tolerability,not toxic
CN(C)C(CNC(=O)Nc1cc(C(F)(F)F)ccc1N1CCOCC1)c1ccncc1 (centres unmarked),,"mouse, serum","intraperitoneal, 180 mg/kg single dose",,serum GGT,< 3 U/L
N=C(N)NCc1ccc(C(=O)NCCCC[C@H](NC(=O)CCCCCCC(=O)NCCCC[C@H](NC(=O)N[C@@H](CCC(=O)O)C(=O)O)C(=O)O)C(=O)O)cc1[131I],,"SCID mouse, PC-3 xenografts, bone",2 h,,tissue uptake,0.22 ± 0.07 %ID/g
CCNc1cc2[o+]c3cc(NCC)c(C)cc3c(-c3ccccc3C(=O)OCCOCC[18F])c2cc1C,,"rat, thyroid/trachea",120 min,,tissue uptake,1.08 ± 0.12 %ID/g
C#Cc1c(F)ccc2cc(O)cc(-c3ncc4c(N5CC6CCC(C5)N6C(=O)OC(C)OC(=O)CCCC)nc(OC[C@@]56CCCN5C[C@H](F)C6)nc4c3F)c12 (some centres unmarked),chemical stability,simulated intestinal fluid,"1 µM, 30 min",,compound remaining,63.9%
CC[C@H](C)C(=O)N1CCC(NC(=O)Nc2ccc(OC(F)(F)F)c(F)c2)CC1,,healthy volunteers,"oral, 2 mg single dose",,subjects with serious TEAE,0%
CC(C)[C@H](NC(=O)CNC(=O)[C@H](CCC(N)=O)NC(=O)[C@H](C)N)C(=O)O,,healthy male volunteers,"intravenous, 90 mg/kg/h, 2 h, together with: LPS 2 ng/kg",,subjects with any AE,37.5%
COc1ccc(C)cc1NC(=O)OC1CC2CCCC(C1)N2Cc1ccc(CC[18F])cc1 (centres unmarked),,"BALB/c mice, EMT6 tumour",5 min,relative to: tumour over lung,tumour to tissue ratio,0.01
Cc1ccc(/C=C/C(=O)O)cc1-c1cc2c(cc1C)C(C)(C)CCC2(C)C,,"Sprague-Dawley rat, male, plasma","oral, 100 mg/kg, 9 h, sesame oil vehicle",,LDL level,8 ± 3 mg/dL
Cc1cnc(-c2ncn3c(=O)n(C)nnc23)o1,,"mouse CD-1 male, liver microsomes","50 µM, 2 h, pH 7.4",relative to: time zero,remaining compound,71 ± 1%
C=C1C(=O)OC2CC(C)C3C=CC(=O)C3(C)C(O[Si](C)(C)C(C)C)C12 (centres unmarked),propidium iodide flow cytometry,"primary splenocytes, BALB/c mouse","48 h, 10% fetal calf serum",,CC50,0.36 ± 0.3 mg/L
CC[C@H](C)[C@H](NC(=O)[C@H](CC(C)C)NC(=O)[C@H]1CCCN1C(=O)[C@@H](CO)NC(=O)[C@H](N)CC(C)C)C(=O)N[C@@H](Cc1ccccc1)C(=O)N[C@H](C(=O)N[C@H](C(=O)N[C@H](C(=O)N1CCC[C@H]1C(=O)N[C@@H](CC(=O)O)C(=O)N[C@@H](C(=O)O)[C@H](C)O)[C@@H](C)O)[C@@H](C)O)C(C)C,flow cytometry,"C57BL/6 mouse, footpad tumour, tumour and lymph nodes",dose not given,relative to: negative control,CCR7+ dendritic cells,no effect
CN[C@](C)(C[18F])C(=O)O,,"SCID mouse A549 xenograft, spleen","30 min, post injection",,tissue uptake,10 ± 3.1 %ID/g
CC[C@H](C)[C@@H]1NC(=O)[C@H](CCCCN)NC(=O)[C@H](CCCCN)NC(=O)[C@H](Cc2ccc(O)cc2)NC(=O)[C@H](CC(C)C)NC(=O)[C@@H]2CCCN2C(=O)[C@H](C)NC(=O)CNC(=O)CNC(=O)[C@H](CO)NC(=O)CNC(=O)CNC(=O)[C@H](CCCNC(=N)N)NC(=O)[C@H](CCC(=O)O)NC(=O)[C@H](CC(C)C)NC(=O)[C@H](Cc2c[nH]cn2)NC(=O)[C@H](CCCCN)NC(=O)[C@H](CCCCN)NC(=O)[C@H]([C@@H](C)CC)NC(=O)[C@H]([C@@H](C)CC)NC(=O)[C@H](CCCCN)NC(=O)[C@H](CCCCN)NC(=O)[C@H](Cc2ccc(O)cc2)NC(=O)[C@H](CC(C)C)NC(=O)[C@@H]2CCCN2C(=O)CNC(=O)CNC(=O)[C@@H](NC(=O)CN)CSSC[C@@H](C(N)=O)NC(=O)[C@H](Cc2c[nH]cn2)NC(=O)[C@H](CCCCN)NC(=O)[C@H](CCCCN)NC(=O)[C@H]([C@@H](C)CC)NC1=O,hemolysis,uninfected human erythrocytes,1 h,,HC10,> 128 µM
[2H]C([2H])([2H])C([2H])([2H])C([2H])([2H])OC(C(=O)OC1CCNCC1)(c1ccccc1)c1ccccc1,,"healthy Japanese male subjects, plasma","oral, 12 mg, day 1, mean",,tmax,4 h
[CH3][Ti+2][O]C(=O)c1ccc([S][Au][PH](c2ccccc2)(c2ccccc2)[c-]2cccc2)cc1.[Fe+2].c1cc[cH-]c1.c1cc[cH-]c1.c1cc[cH-]c1,,DMSO/water,5 × 10 µM,,pH,5.21
CCOP(=O)(OCC)OCCCCOC(=O)C(C)c1ccc(CC(C)C)cc1 (centres unmarked),HPLC,"Fischer 344 rats, plasma","diet or gavage, dose not given",,plasma concentration,not detected
CC(=O)[O-].CN1CCCN2CCN(C)CCCN(CC1)CC2.F[P-](F)(F)(F)(F)F.[Co+2],"cyclic voltammetry, measured: first Co2+/Co3+ couple",acetonitrile,,relative to: SHE,E1/2,0.246 V
C[C@@H](O)[C@H](NC(=O)[C@H](CCC(=O)O)NC(=O)[C@H](Cc1ccccc1)NC(=O)[C@H](Cc1c[nH]c2ccccc12)NC(=O)[C@H](CCCCN)NC(=O)[C@H](CCCCN)NC(=O)[C@H](CCCCN)NC(=S)Nc1ccc2c(c1)C(=O)OC21c2ccc(O)cc2Oc2cc(O)ccc21)C(=O)N[C@@H](Cc1c[nH]c2ccccc12)C(=O)N[C@@H](Cc1ccccc1)C(=O)N[C@H](C(=O)N[C@@H](CCC(=O)O)C(=O)N[C@@H](Cc1c[nH]c2ccccc12)C(=O)N1CCC[C@H]1C(=O)N[C@@H](CCCCN)C(=O)N[C@@H](CCCCN)C(=O)N[C@@H](CCCCN)C(=O)N[C@@H](CCCCN)C(=O)O)[C@@H](C)O,,gelatin hydrogel 50 mg/mL,"56.6 µg loaded, glutaraldehyde cross-linked, together with: PBS",,cumulative peptide release,44 µg
CCCCCCCC(=O)OC[C@H](NC(=O)[C@H](CO)NC(=O)CN)C(=O)N[C@@H](Cc1ccccc1)C(=O)N[C@@H](CC(C)C)C(=O)N[C@@H](CO)C(=O)N1CCC[C@H]1C(=O)N[C@@H](CCC(=O)O)C(=O)N[C@@H](Cc1cnc[nH]1)C(=O)N[C@@H](CCC(N)=O)C(=O)N[C@@H](CCCNC(=N)N)C(=O)N[C@H](C(=O)N[C@@H](CCC(N)=O)C(=O)N[C@@H](CCC(N)=O)C(=O)N[C@@H](CCCNC(=N)N)C(=O)N[C@@H](CCCCN)C(=O)N[C@@H](CCC(=O)O)C(=O)N[C@@H](CO)C(=O)N[C@@H](CCCCN)C(=O)N[C@@H](CCCCN)C(=O)N1CCC[C@H]1C(=O)N1CCC[C@H]1C(=O)N[C@@H](C)C(=O)N[C@@H](CCCCN)C(=O)N[C@@H](CC(C)C)C(=O)N[C@@H](CCC(N)=O)C(=O)N1CCC[C@H]1C(=O)N[C@@H](CCCNC(=N)N)C(=O)O)C(C)C,,"human, plasma","intravenous infusion, 1, 3 and 5 µg/kg/h",,time to steady state,45 min
O=P([O-])([O-])Oc1ccc(-c2cc(=S)ss2)cc1.[Na+].[Na+],HPLC,PBS,"48 h, pH 7.4, 25 °C",,solubility,1.69 mg/mL
CSCC[C@@H]1NC(=O)[C@@H]2CSSC[C@H](NC(=O)[C@H](CO)NC(=O)[C@H](C)N)C(=O)N[C@@H](CCCNC(=N)N)C(=O)N[C@@H]([C@@H](C)O)C(=O)N3CCC[C@H]3C(=O)N[C@@H](CCCCN)C(=O)N[C@@H](CC(=O)O)C(=O)N[C@H]3CSSC[C@H](NC(=O)[C@H](CCCCN)NC(=O)[C@H](CCCNC(=N)N)NC(=O)[C@H](CC(N)=O)NC1=O)C(=O)N[C@@H](CCCCN)C(=O)N[C@H]1CSSC[C@H](NC(=O)[C@@H]4CCCN4C(=O)[C@H](CC(=O)O)NC(=O)[C@H](C)NC3=O)C(=O)N[C@@H](C)C(=O)N[C@@H](CCCCN)C(=O)N[C@@H](CCC(=O)O)C(=O)N[C@@H]([C@@H](C)O)C(=O)NCC(=O)N[C@@H](CSSC[C@@H](C(N)=O)NC(=O)[C@H](CCCNC(=N)N)NC(=O)[C@H](CC(N)=O)NC1=O)C(=O)N1CCC[C@H]1C(=O)N[C@@H](Cc1ccc(O)cc1)C(=O)NCC(=O)N[C@@H](CCCCN)C(=O)N2,,"DA rat pristane-induced arthritis, serum","subcutaneous, 0.1 mg/kg every other day, 21 days",,Calcium,8.96 mg/dL

# For quick reference, copied from above:
Compound,test,test system,conditions,scale,measurement,result
Cc1cnc(-c2ncn3c(=O)n(C)nnc23)o1,,"mouse CD-1 male, liver microsomes","50 µM, 2 h, pH 7.4",relative to: time zero,remaining compound,71 ± 1%
C=C1C(=O)OC2CC(C)C3C=CC(=O)C3(C)C(O[Si](C)(C)C(C)C)C12 (centres unmarked),propidium iodide flow cytometry,"primary splenocytes, BALB/c mouse","48 h, 10% fetal calf serum",,CC50,0.36 ± 0.3 mg/L
CC[C@H](C)[C@H](NC(=O)[C@H](CC(C)C)NC(=O)[C@H]1CCCN1C(=O)[C@@H](CO)NC(=O)[C@H](N)CC(C)C)C(=O)N[C@@H](Cc1ccccc1)C(=O)N[C@H](C(=O)N[C@H](C(=O)N[C@H](C(=O)N1CCC[C@H]1C(=O)N[C@@H](CC(=O)O)C(=O)N[C@@H](C(=O)O)[C@H](C)O)[C@@H](C)O)[C@@H](C)O)C(C)C,flow cytometry,"C57BL/6 mouse, footpad tumour, tumour and lymph nodes",dose not given,relative to: negative control,CCR7+ dendritic cells,no effect
CN[C@](C)(C[18F])C(=O)O,,"SCID mouse A549 xenograft, spleen","30 min, post injection",,tissue uptake,10 ± 3.1 %ID/g
